Measurements pooled from the literature.
Every numbered part comes from another study and shows a few of its results, in no order. Positions count from the first letter of the parent shown.

Sample 1
Substance: PhoQ, residues 284 288 289 292 302 303 SCKMEA
Technique: Sort-seq
Measured: YFP reporter
Matrix: E. coli
Notes: PhoQ-PhoP variant library
Added: 10 µM Mg2+
Relative to: high Mg2+ state
Reading: higher = stronger signaling
target | fold induction
PhoP, residues 12 14 15 18 19 VGHWL (Escherichia coli, UniProt P23836) | 17.1
PhoP, residues 12 14 15 18 19 NFFVT (Escherichia coli, UniProt P23836) | 28.2
PhoP, residues 12 14 15 18 19 TPWTL (Escherichia coli, UniProt P23836) | 17.4

Sample 2
Target: RNA binding protein fox-1 homolog 2, RRM domain, GST-SBP tag (RBFOX2, Homo sapiens, UniProt O43251-10, residues 100-194)
Technique: RNA Bind-n-Seq
Molecule type: RNA
Matrix: in vitro
Tested at: 365 nM
Notes: natural RNA segment, single round, ends assumed
Relative to: no-protein control
Reading: higher = stronger binding
Target sequence (chain): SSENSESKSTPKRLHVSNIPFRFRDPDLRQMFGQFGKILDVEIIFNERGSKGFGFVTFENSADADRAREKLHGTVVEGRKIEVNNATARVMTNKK
Strand | RBNS enrichment (R)
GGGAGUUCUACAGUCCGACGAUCUAAUUAUUUUUCUCUAAAUGAACUGUACAUUUAUCUUAAAUAAAAAUUUAUUUUUGAGAUAACUGUUGCAAAGUCUACUUUUUCUAGAGACCUUCUUGGGGGAAACAUUGUGGAAUUCUCGGGUGCCAA | 0.437
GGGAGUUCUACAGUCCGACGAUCCUGCAAGCCCCACCCUCCUUGAGACUGGAGCUGGCGUCUGCAUACGAGAGACUUGGUUGAACUUGGUUGGUCCUUGUCUGCACCCUCGACAAGACCACACUUUGGGACUUUGGAAUUCUCGGGUGCCAA | 1.34
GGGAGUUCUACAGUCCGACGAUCUUUUGGAAAUUGUUGUAUAUCACUAAAAGCAUGAAUUGGAACUGCAAUGAAAGUCAAAUUUACUUUAAAAAGAAAUUAAUAUGGCUUCACCAAGAAGCAAAGUUCAACUUUGGAAUUCUCGGGUGCCAA | 12.6
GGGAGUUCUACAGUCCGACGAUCCCUUGACCCCUGGGCACCUCCAUCCCCUCCCACCUGUCCCCAGAUCAGUCUCUGGGAUGGAGGCCAGAGAGCUGGUCAGGCUCCCCCAUCUGCCCAGCACGGCCUGCACUUGGAAUUCUCGGGUGCCAA | 1.44
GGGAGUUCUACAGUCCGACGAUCGAAGGUCUUCCUGUUUUCACCAUCUUUCUAAUCUUUUUCCAGCUUGAGGGAGGCGGUAUCCACCUGCAGCCCUUUUAGUGGUGGUGUCUCACUCUUUCUUCUCUCUUUGUUGGAAUUCUCGGGUGCCAA | 0.441
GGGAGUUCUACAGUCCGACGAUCAGGAUUUGAACCGAGCAGCCAAUCUUUCCAGCCCUCCCCUACCGACCUCUGCCUGGAGACGCAGCAGCCUGUGUCCUCCAGGGCCUCUGGUUUGUUGUAUUAUAGUAUAUUGGAAUUCUCGGGUGCCAA | 0.343
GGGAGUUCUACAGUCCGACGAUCGAUCCCAGGUGACUGGCUCUUGUGAAGAGUCUUAAGUGUCCUGUGGUACCGUAGAGUGGAAAUGAUCUUCAAUAAUAACAGUAGUGACUUUUGGAUGCUUUGUUGCUGGUUGGAAUUCUCGGGUGCCAA | 0.511
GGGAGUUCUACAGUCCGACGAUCCCCUGGGAGUCAGACCAGGGACUCCUCAGGGAGUGAAAUGUGCUUCAGGACACACAGGACUCGAGCCAAGCUCCUGAUCCAGUCACACCCCACCCCCGACUCCCCUGCCUUGGAAUUCUCGGGUGCCAA | 0.243
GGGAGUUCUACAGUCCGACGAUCAUCAUCAAAGCAUGGGUACCCCCAUCUGCAAGGGAUGGGCUUCAUCCUCCGCUAGUCCCUGUGUCCUUCCUGGGCACGGGGUGAGAGCUGUAGAAGCGGUGGGGGCACAGUGGAAUUCUCGGGUGCCAA | 1.16
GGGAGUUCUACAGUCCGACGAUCGCUUUUCAGCUGACAUACAGAGCACUAAAUACUUUACGGCAAAUCCAUAGGUCUGAAUCUCUUAAGAAUUCUCAGUCUCUCUGGGAUGUAGGGCGCAUUAUAAAUGCAUUUGGAAUUCUCGGGUGCCAA | 0.386
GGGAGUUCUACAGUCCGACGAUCUUCUUACAUGAUAAGCAGAUUGAAUACAACACCAGCAGCUUGCCUUAGAAAAGGAGAAAGGAAUUCCUUUUCCCGCCCGAACAUGAAGAAAAAUGACCUGACCCUGUAGAUGGAAUUCUCGGGUGCCAA | 0.572
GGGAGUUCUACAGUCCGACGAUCUCGGAAACUAUUUUUAUGUAAUUAAUGUAUGCUUUCUUGUUUAUAAAUGCCUGAUUUAAAAAGAAAAGAGCUUGGCAUAUUUAUCUAUUUCGCUGUGUACCUGUUAGUCCUGGAAUUCUCGGGUGCCAA | 15.1

Sample 3
Target: RING finger protein unkempt homolog, zinc fingers 1-6, GST-SBP tag (UNK, Homo sapiens, UniProt Q9C0B0, residues 30-357)
Technique: RNA Bind-n-Seq
Molecule type: RNA
Matrix: in vitro
Tested at: not given
Notes: RNA with constant flanks, human and mouse sites, ends assumed
Relative to: input RNA pool
Reading: higher = stronger binding
Construct (chain): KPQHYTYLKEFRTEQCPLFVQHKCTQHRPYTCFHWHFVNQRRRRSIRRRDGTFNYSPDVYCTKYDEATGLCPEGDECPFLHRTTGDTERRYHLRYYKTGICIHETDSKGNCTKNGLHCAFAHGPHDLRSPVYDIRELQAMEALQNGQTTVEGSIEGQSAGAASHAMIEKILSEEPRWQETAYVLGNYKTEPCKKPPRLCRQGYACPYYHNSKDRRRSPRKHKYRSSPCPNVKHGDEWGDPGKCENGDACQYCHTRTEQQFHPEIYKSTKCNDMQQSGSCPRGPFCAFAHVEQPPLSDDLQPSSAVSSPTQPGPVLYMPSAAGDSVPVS
Strand | bound/input enrichment
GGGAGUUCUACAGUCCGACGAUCGGAGCAUUAAUUGCUUCUCUUAUCAACUGCUACAUCAGAGACAACGCCGCCGUAGACGGCAUUAGCUUACAUCUGCAGGACACCUGUCCGCUUCUGUAUAGCACAGACGAUGCAGUUUGUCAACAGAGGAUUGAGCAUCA | 0.18 ratio
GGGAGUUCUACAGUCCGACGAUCACCCUCAAAGUGGCUGAUUUUGGUCUAAGUAAAGUUUGUUCAGCCUCUGGGCAGAACCCAGAAGAACCUGUCAGUGUAAACAAGUGUUUCCUUUCCACAGCAUGUGGAACAGAUUUUUACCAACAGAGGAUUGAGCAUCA | 0.137 ratio
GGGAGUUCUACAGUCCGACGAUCAUCUUGCAGGCAGGAUUGAUUUGAACAGGGAUUACUUCAACACACAUUUGUUUGUCUUUAUCUUUGUGUCAUUAUUGCAUGAUGUUGUUCGCUUAGAGAUGGCAUCCUUUUCUUACCAUUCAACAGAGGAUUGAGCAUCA | 0.201 ratio
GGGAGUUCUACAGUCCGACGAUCUUAAUGUCUGCCAGAACACAAUUUAUAUGCCUUAUUGGCUUCAUUAAACUUUUAGAAAACUUUAGCAUUUGUUACUUUUUUCCAUUGCGUUUACUUUCAAAUGCACCUAAUGAAUUUGUCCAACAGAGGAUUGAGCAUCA | 6.32 ratio
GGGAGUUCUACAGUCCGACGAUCAUGAUGGGCCACGGAUCUGACUACUCACUCAGUGAAGUGCUGUGGGUCUGUGCCAACCUCUUUAGUGAUGUCCAAUUCAAGAUGAGUCAUAAGAGGAUCAUGCUGUUCACCAAUGAAGACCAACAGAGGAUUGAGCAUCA | 0.289 ratio
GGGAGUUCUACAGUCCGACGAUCCAGGGUGGGACCCGGGACCCGCGGCUCAGUGGCCCGCUAGCCACGUCAGCCAAGCCACUUUAGGUCCAUUUUUUAAUUUUAACAGUGCUCUUCCAUCUUGUGCAUAAGCCUGAGAUUUGGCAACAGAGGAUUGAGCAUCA | 120 ratio
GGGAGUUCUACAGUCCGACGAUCUUGGAAGGACCAGAGCCCAGUCAGCUCAAACCACUAGUUAUACAGGCUAUGCCCACCCUAAUAGAAUUAAUGAAAGACCCCAGUGUAGUUGUUCGAGAUACAGCUGCAUGGACUGUAGGCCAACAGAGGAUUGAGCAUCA | 5.17 ratio
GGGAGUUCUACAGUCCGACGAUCAAAUAUAACACUUAAUUAGCAGUGAUUUUUUUUGUUUAUGUAAUAAUAACUAUAACUUUGUUAUGACUGUGAACCUUAAUUUUAACACUUUAAAUAUAGCAUAUUCCAUUGUUUAGAGAUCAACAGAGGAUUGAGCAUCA | 14.9 ratio
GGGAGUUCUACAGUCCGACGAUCCCAACAUUGACCAAAAAGGAGACAAUUUCUUUGCAAAUGGAAGAGUUUAAUACUGCAAUUUAUUCCAAUGAUGACUUACUUUCUUCUAAGGAAGACAAAAUGAAAGAAAGUGAAACAUUUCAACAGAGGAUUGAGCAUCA | 0.132 ratio
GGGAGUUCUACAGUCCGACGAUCAUCCAUGCUGCCACCCUCAAGUUGCUAGAGGACCAAGAACUUAGUGUUUCAAGCGUCGUGAAUUUCCAGAUAAUCUCUGUCUACAGACAUAAGAAGUUGCACAAGAUGCUUGAAGAGAAACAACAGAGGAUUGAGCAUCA | 0.549 ratio
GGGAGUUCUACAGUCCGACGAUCAAAGAAACAGAAGAAGGAGAAGACAAUUUGCUCUGUAACCUUCGGGAAGUUCAGUGCCUUAUCUGUUGCCUGUUACACCAAAUGUACAUUGCAGAUCCCAACAUUGCUAAACUUGUUCACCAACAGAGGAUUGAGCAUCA | 0.0902 ratio

Sample 4
Target: CCND3, cyclin fold, Cln2 fusion (human)
Technique: yeast growth competition, sequencing
Matrix: yeast
Notes: weak parent motif
Relative to: not given
Reading: higher = stronger binding
Parent: E2F1 docking peptide (human); PPVKRRLDLETDH; partner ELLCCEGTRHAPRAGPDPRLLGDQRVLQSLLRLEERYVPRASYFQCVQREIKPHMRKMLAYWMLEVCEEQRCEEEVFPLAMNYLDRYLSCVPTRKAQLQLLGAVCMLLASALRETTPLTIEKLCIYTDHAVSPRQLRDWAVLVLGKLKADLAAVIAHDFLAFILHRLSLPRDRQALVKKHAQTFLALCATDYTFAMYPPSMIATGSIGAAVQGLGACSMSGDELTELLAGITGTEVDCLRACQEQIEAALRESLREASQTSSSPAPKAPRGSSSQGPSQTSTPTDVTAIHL
Variant | normalised enrichment score
H13D | 0.112
P2H | 0.147
L7R | 0.0768
V3M | 0.128
P1E | 0.169
L9F | 0.413
D12V | 0.0981
T11M | 0.0377
V3C | 0.145
P2R | 0.126
T11D | 0.059
K4S | 0.105
D12N | 0.0573
R5I | 0.0619
D12R | 0.0485
K4P | 0.103

Some of these lines once more (sample 4):
Variant | normalised enrichment score
D12V | 0.0981
T11M | 0.0377
V3C | 0.145
